Measured values of several laboratories.
Target: Serine/threonine-protein kinase Sgk3 (SGK3, Homo sapiens, UniProt Q96BR1)
Residues used in one study (Q96BR1 1-496): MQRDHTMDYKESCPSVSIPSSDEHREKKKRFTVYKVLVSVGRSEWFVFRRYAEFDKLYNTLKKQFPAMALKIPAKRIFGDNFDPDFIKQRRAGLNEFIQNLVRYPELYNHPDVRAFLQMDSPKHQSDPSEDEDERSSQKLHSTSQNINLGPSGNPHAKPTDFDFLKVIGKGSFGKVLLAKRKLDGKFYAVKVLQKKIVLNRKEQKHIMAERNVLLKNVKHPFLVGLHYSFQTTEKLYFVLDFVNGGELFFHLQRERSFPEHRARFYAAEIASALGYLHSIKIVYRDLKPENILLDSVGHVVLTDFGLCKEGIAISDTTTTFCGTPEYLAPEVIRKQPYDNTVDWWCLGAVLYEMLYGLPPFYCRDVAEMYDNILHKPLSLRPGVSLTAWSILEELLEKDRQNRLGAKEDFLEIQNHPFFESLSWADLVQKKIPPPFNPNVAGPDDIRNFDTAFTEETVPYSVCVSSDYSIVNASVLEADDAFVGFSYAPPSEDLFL

Cc1cc(Nc2cc(N3CCN(C)CC3)nc(Sc3ccc(NC(=O)C4CC4)cc3)n2)[nH]n1  remaining activity (kinase activity, KinaseProfiler; 0.03 µM, species human; baseline: control): 98%
CC(C)[C@H](NC(=O)c1cc(-c2cnn3cc(-c4ccc(OCCN5CCCCC5)cc4)cnc23)cs1)C(F)(F)F  relative inhibition (radiometric kinase; 15 nM; baseline: SGK3 over ULK1): 0.0455
COc1cc(-c2cncc3c2CN(C)Cc2cc(N4CCNCC4)ccc2-3)cc(OC)c1OC  remaining activity (kinase activity; 1 µM, human enzyme, added: ATP 10 µM; baseline: DMSO control): 108%
CNc1ncc2c(/C=C/C(=O)N3CCC(OC)CC3)nn(Cc3cccc(C(F)(F)F)c3)c2n1  remaining activity (kinase activity, inhibitor; 1 µM; baseline: untreated control): 96%
COc1cc(F)ccc1-c1ncnc(Nc2cccc(C[S@](C)(=N)=O)c2)n1  remaining activity (kinase activity; 10 µM, added: 10 µM ATP): 108%
CC[C@@H]1[C@H](F)C(=O)N[C@@H]1COc1nccc2cc(C(N)=O)c(OC)cc12  inhibition (ATP-site probe binding, ActivX profiling; THP-1 cell lysate; 0.04 mM, Lys2 site): 6.7%
CNc1cc(Oc2cc(C(=O)Nc3cc(N4CCN(C)CC4)cc(C(F)(F)F)c3)ccc2C)ncn1  inhibition (probe labelling, KiNativ; Huh-7, live cells; 1 µM, Lys1 site, peptide FYAVKVLQK): -81.5%
C=CC(=O)N1CCC(COCC(=O)N2CCN(c3nc(-c4cnc(N)nc4C(F)F)nc(N4CCOC[C@@H]4C)n3)CC2)CC1  remaining binding (KINOMEscan; 1 µM): 99%

Some of these lines once more:
CNc1ncc2c(/C=C/C(=O)N3CCC(OC)CC3)nn(Cc3cccc(C(F)(F)F)c3)c2n1  remaining activity (kinase activity, inhibitor; 1 µM; baseline: untreated control): 96%
